Experimental data pooled from the literature.
A part holds a random share of what one study measured. Substitutions count along the parent as printed.
Chain of UniProt P00519 (whole entry, looked up): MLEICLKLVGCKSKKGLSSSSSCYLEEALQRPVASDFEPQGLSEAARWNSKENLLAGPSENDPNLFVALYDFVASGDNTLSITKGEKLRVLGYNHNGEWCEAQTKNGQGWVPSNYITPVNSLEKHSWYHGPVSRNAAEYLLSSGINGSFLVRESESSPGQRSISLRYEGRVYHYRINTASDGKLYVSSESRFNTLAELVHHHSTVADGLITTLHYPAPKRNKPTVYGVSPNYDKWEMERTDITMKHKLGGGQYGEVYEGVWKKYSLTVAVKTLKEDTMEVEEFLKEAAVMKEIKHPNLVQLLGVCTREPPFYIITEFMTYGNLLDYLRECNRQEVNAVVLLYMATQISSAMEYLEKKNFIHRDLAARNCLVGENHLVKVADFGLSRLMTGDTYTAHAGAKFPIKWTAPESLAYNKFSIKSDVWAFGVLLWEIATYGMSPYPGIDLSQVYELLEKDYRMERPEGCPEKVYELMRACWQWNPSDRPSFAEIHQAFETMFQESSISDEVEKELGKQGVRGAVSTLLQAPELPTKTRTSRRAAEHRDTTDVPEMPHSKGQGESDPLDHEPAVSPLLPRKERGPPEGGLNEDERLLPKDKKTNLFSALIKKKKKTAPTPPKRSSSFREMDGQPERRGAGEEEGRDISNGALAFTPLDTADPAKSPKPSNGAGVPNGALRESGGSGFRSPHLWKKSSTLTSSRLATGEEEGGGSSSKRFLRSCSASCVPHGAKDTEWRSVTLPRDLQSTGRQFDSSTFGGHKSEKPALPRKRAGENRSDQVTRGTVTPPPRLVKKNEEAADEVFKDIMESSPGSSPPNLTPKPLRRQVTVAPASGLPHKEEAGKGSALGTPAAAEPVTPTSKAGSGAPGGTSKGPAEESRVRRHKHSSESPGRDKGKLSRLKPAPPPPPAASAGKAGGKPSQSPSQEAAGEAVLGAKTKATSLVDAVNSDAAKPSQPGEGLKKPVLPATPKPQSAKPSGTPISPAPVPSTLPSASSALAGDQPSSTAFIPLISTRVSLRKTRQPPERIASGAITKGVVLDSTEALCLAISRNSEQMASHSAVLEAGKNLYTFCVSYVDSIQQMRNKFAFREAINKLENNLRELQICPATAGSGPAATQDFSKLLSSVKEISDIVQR

Sample 1
Target: CCNF, cyclin fold, Cln2 fusion (human)
Technique: yeast growth competition, sequencing
Matrix: yeast
Setting: strong parent motif
Reference: not given
Reading: higher = stronger binding
Parent: AKAP12 docking peptide (human); GSPLKKLFTSTGL
Substitution	normalised enrichment score
G1A	1.41
K5R F8L	1.32
G12A	0.686
K5A	0.885
T11A	1.11
T9A	1.41
K5A L7A	-0.265
F8L	0.913

Sample 2
SMILES: COc1ccc2cc(OCC3(C(=O)O)CN(C(=O)c4ccc(F)cc4)C3)ccc2c1
Effect on: cell-free assay
Technique: competition with immobilised ligand
Concentration: 1 µM
target	remaining binding [%]
Tyrosine-protein kinase ABL1, non-phosphorylated (ABL1, Homo sapiens, UniProt P00519)	78
MAP2K2 (Homo sapiens, UniProt P36507)	100
EGFR (Homo sapiens, UniProt P00533, L861Q)	100

Sample 3
Target: Eukaryotic initiation factor 4A-I (EIF4A1, Homo sapiens, UniProt P60842, residues 1-406, full length assumed)
Chain of UniProt P60842 (whole entry, looked up): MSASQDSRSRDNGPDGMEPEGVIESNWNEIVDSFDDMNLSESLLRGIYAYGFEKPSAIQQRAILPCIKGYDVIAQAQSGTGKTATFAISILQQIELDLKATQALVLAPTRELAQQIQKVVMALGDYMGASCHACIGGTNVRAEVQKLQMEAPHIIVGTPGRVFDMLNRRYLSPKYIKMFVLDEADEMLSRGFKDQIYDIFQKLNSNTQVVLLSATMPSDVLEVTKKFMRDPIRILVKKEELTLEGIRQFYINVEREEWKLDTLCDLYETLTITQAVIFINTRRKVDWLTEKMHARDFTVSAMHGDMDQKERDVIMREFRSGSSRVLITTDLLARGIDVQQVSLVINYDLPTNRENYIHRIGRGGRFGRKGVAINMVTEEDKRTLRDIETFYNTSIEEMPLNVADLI
Technique: RNA Bind-n-Seq
Form: RNA
Matrix: in vitro
Concentration: 15 pmol
Setting: 4-mer, random 30-nt RNA, single round
With: 3 µM DMDA-PatA, 2 mM AMP-PNP
Reference: input library
Reading: higher = stronger binding
Strand	4-mer enrichment [fold]
AAGC	0.654
GAUA	1.04
GACG	0.689
GCAU	0.887
GAAG	1.04
CUCG	0.824
ACUG	0.721
GAAU	1.25

Mixed results
Structure (SMILES)	test system	measurement	result
CCOC(=O)[C@@H]1CSCC(=O)N[C@H](CC)C(=O)N(C)[C@@H](C)C(=O)N[C@@H](CC(C)C)C(=O)N2CCC[C@@H]2C(=O)N(CC)CC(=O)N[C@@H](CC(C)C)C(=O)N(C)[C@@H](C)C(=O)N[C@@H](CC(C)C)C(=O)N1C	hydrocarbon/water	logD	0.894

For quick reference, copied from above (sample 3):
Strand	4-mer enrichment [fold]
GAUA	1.04
GACG	0.689
